# Measurements collected from several papers.
# Compare with care: the assays were run in different laboratories.
SMILES,target or system,assay,system,setting,how to read,measurement,value
CCCC(C)Oc1cccc(NC(=O)c2cccnc2)c1 (stereo not shown),Aspergillus fumigatus,"microbial growth, broth dilution",MF5668,,,MIC50,64 µg/mL
CC1(C)C(NC(=O)C(=NOC2(C(=O)O)CC2)c2csc(N)n2)C(=O)N1OS(=O)(=O)O (stereo not shown),Serratia marcescens,agar dilution,"ATCC 21074, susceptible",,,MIC,0.25 µg/mL
CCOC(=O)c1cc(-c2nc3ccccc3s2)c(=O)n(NS(=O)(=O)c2ccccc2)c1N,hepatitis C virus,qRT-PCR,"Huh7.5, genotype 4",concentration not given,,viral load reduction,0%
C[C@@H]1C(=O)O[C@@H](C)/C=C/C=C\[C@@H](C)[C@@H]2C=C[C@@H]3C[C@@]4(C)O[C@H]4[C@@H](C)[C@H]3[C@@H]2C(=O)C(Cl)(Cl)C1=O,Staphylococcus aureus,,MSSA and MRSA clinical isolates,180 isolates,,highest MIC,0.2 µg/mL
O=S(=O)(CCC(F)(F)F)N[C@H]1CC[C@H](Nc2ncc3c(-c4ccccn4)n[nH]c3n2)CC1,Leishmania donovani,parasite growth,THP-1,"intracellular, amastigote",,EC50,316 nM
Cc1ccc(S(=O)(=O)Nn2c3c(cc(-c4nc5ccccc5s4)c2=O)CCCC3)cc1,hepatitis C virus,qRT-PCR,"Huh7.5, genotype 4",concentration not given,,viral load reduction,23.3%
COc1ccccc1-c1n[nH]c2nc(NC3CCN(C(=O)Cc4ccc(F)cc4F)CC3)ncc12,Leishmania donovani,parasite growth,THP-1,"intracellular, amastigote",,EC50,75.2 nM
CC(C)(C)NCC(SS(=O)(=O)O)c1ccccc1 (stereo not shown),Schistosoma mansoni,,mice,"600 mg/kg single dose, 1056 h, dosed day 1, perfused 44",relative to: vehicle,female worm burden reduction,8%
c1ccc2c(Cc3c(-c4c[nH]c5ccccc45)[nH]c4ccccc34)c[nH]c2c1,Parabacteroides distasonis,"bacterial growth, inhibitor, OD600",,anaerobic,,IC50,> 50000 nM
N=C(N)NCCC[C@@H]1NC(=O)[C@H](CCCNC(=N)N)NC(=O)[C@@H](CCCNC(=N)N)NC(=O)[C@@H](CCCNC(=N)N)NC(=O)[C@@H](C(c2ccccc2)c2ccccc2)NC(=O)[C@H](Cc2c[nH]c3ccccc23)NC(=O)[C@@H](C(c2ccccc2)c2ccccc2)NC1=O,Blastomyces dermatitidis,,BD-3,,,MIC,2 µg/mL
Cc1cc(C(=O)Nc2nc3cccc(C)c3n2[C@H]2CCCCN(C(=O)/C=C/CN(C)C)C2)ccn1,Trypanosoma brucei brucei,"cell growth, CellTiter-Glo",Lister 427 bloodstream form,"48 h, mean of 2 experiments",,EC50,74 nM
O=C1C(O)=C([C@H]2CC[C@H](c3ccc(Cl)cc3)CC2)C(=O)c2ccccc21,Toxoplasma gondii,"tachyzoite growth, luciferase",HFF,72 h,,EC50,156 nM
Cc1c(CN(C)C(=O)/C=C/c2cnc3c(c2)CC(N)C(=O)N3)oc2ccccc12 (stereo not shown),Escherichia coli,broth microdilution,AR-0151,,,MIC,8 µg/mL
Cc1ccccc1/C=C/C(=O)N[C@H]1COC(=O)[C@H](CC(=O)O)NC(=O)[C@H]([C@@H](O)C(=O)c2ccccc2N)NC(=O)[C@@H](Cc2ccccc2)NC(=O)[C@@H](NC(=O)[C@@H](Cc2ccccc2)NC(=O)CN)[C@@H](C)OC1=O,Mycobacterium avium,resazurin microtitre,104,"4 days, 37 °C",,MIC50,inactive
CC(C)CC(c1c[nH]c2ccccc12)c1c[nH]c2ccccc12,Bacteroides fragilis,"microbial growth, absorbance",,,,IC50,81000 nM
CN(Cc1ccc(C2(C(F)(F)F)CCC2)cc1)Cc1cccc2ccccc12,Trichophyton rubrum,"microbial growth, disc diffusion",ATCC28188,"0.002 µg/mL, 6 days",,inhibition zone,4.75 mm
COC1CN([C@H]2CC[C@H]([C@@]3(C)Oc4c(Cl)cc(C(=O)NCc5c(SC)cc(C)[nH]c5=O)c(C)c4O3)CC2)C1,,"RNA-seq, item: SMPDL3A","human, whole blood","dose not given, 24 h",relative to: pretreatment baseline,log2 fold change,1.52
N=C(N)NCCC[C@@H]1NC(=O)[C@@H](CCCNC(=N)N)NC(=O)[C@H](CCCNC(=N)N)NC(=O)[C@@H](C(c2ccccc2)c2ccccc2)NC(=O)[C@@H](C(c2ccccc2)c2ccccc2)NC(=O)[C@@H](C(c2ccccc2)c2ccccc2)NC(=O)[C@@H](CCCNC(=N)N)NC1=O,Aspergillus fumigatus,fungal growth,,,,MIC,> 64 µg/mL
FC(F)(F)c1cccc(CNc2nc(NC3CCN(Cc4ccccc4)CC3)c3nc[nH]c3n2)c1,Cryptococcus neoformans,microbial growth,,17 h,,MIC50,15 µg/mL
Cc1ncsc1-c1ccc(C(C)NC(=O)C2CC(O)CN2C(=O)C(NC(=O)CCCCCCCCCCN2CCCC(Nc3ncc(Cl)c(Nc4ccccc4S(=O)(=O)C(C)C)n3)C2)C(C)(C)C)cc1 (stereo not shown),22Rv1,"RNA-seq, item: PMEPA1 mRNA",,concentration not given,relative to: DMSO,log2 fold change,-1.15
CC1C=CC=CC(C)C2C=CC3CC(C)(O)C(Cl)C(C)C3C2C(=O)C(Cl)(Cl)C(=O)C(C)C(=O)O1 (stereo not shown),Staphylococcus aureus,,MSSA clinical isolate,"resistant: PEN,CLI,ERY",,MIC,0.1 µg/mL
CC1(C)[C@H](NC(=O)/C(=N\OCc2c(Cl)cccc2Cl)c2nsc(N)n2)C(=O)N1OS(=O)(=O)O,Serratia marcescens,agar dilution,"ATCC 21074, susceptible",,,MIC,8 µg/mL
N=C(N)NCCC[C@@H]1NC(=O)[C@H](CCCNC(=N)N)NC(=O)[C@H](CCCNC(=N)N)NC(=O)[C@@H](CCCNC(=N)N)NC(=O)[C@H](Cc2ccc3ccccc3c2)NC(=O)[C@H](Cc2ccc3ccccc3c2)NC(=O)[C@H](Cc2ccc3ccccc3c2)NC1=O,Blastomyces dermatitidis,,BD-3,,,MIC,4 µg/mL
O=Cc1c[nH]c2ccccc12,Bacteroides fragilis,"microbial growth, absorbance",,,,IC50,> 50000 nM
C=C(NC(=O)c1csc(-c2nc3c(cc2O)-c2nc(cs2)C(=O)NC(C(C)O)C(=O)NC(=C(C)OC)c2nc(cs2)C(=O)NC2c4nc(cs4)C(=O)NC(COC(=O)c4c5c6c(cccc6n4O)COC(=O)C(OC4CC(C)(O)C(N(C)C)C(C)O4)C2OC5)c2nc-3cs2)n1)C(N)=O (stereo not shown),Streptococcus pneumoniae,,"-4, immunocompromised mice, lung","32 mg/kg/day once daily, 24 h post-dose",,lung bacterial load,4.15 log10 CFU/lung
COC1C=COC2(C)Oc3c(C)c(O)c4c(c3C2=O)C2=NC3(CCN(CC(C)C)CC3)NC2=C(NC(=O)C(C)=CC=CC(C)C(O)C(C)C(O)C(C)C(OC(=O)Nc2cnccn2)C1C)C4=O (stereo not shown),Mycobacteroides abscessus,,clinical isolates,90% isolates inhibited,,MIC90,310 µM
CC(c1c[nH]c2ccccc12)c1c[nH]c2ccccc12,Parabacteroides distasonis,"bacterial growth, inhibitor, OD600",,anaerobic,,IC50,> 50000 nM
COC1C=COC2(C)Oc3c(C)c(O)c4c(c3C2=O)C2=NC3(CCN(CC(C)C)CC3)NC2=C(NC(=O)C(C)=CC=CC(C)C(O)C(C)C(O)C(C)C(OC(=O)Nc2cccnn2)C1C)C4=O (stereo not shown),Mycobacteroides abscessus,,"ATCC 19977, caseum surrogate","5 d, non-replicating",,MBC,0.5 µM
CNCc1ccc2c(c1)N(C(=O)OCc1c(F)c(F)c(F)c(F)c1F)[C@H](CNC(=N)N)[C@H]2NC(=O)C(=O)Nc1ccc(Cl)c(F)c1,HIV-1,"pseudovirus infection, Env pseudovirus neutralisation","TZM-bl, clade C T/F isolate 2A2",,,IC80,13100 nM
Cn1c(=O)c(-c2ccccc2Cl)cc2cnc(Nc3cccc(S(C)(=O)=O)c3)nc21,Cryptosporidium hominis,"parasite growth, high-content imaging",HCT-8,,,EC50,160 nM
O=C1Nc2ccccc2C1(c1c[nH]c2ccccc12)c1c[nH]c2ccccc12,Parabacteroides distasonis,"bacterial growth, inhibitor, OD600",,anaerobic,,IC50,> 50000 nM
CCCCCCCCCC(=O)N[C@@H](Cc1c[nH]c2ccccc12)C(=O)N[C@H](CC(N)=O)C(=O)N[C@@H](CC(=O)O)C(=O)N[C@@H]1C(=O)NCC(=O)N[C@@H](CCCNC(=O)OC2/C=C/CCCCC2)C(=O)N[C@@H](CC(=O)O)C(=O)N[C@H](C)C(=O)N[C@@H](CC(=O)O)C(=O)NCC(=O)N[C@H](CO)C(=O)N[C@@H]([C@H](C)CC(=O)O)C(=O)N[C@@H](CC(=O)c2ccccc2N)C(=O)O[C@@H]1C (stereo partly shown),Staphylococcus aureus,isothermal microcalorimetry,MRSA,0.5 µg/mL,relative to: free drug,heat flow peak reduction,4.2 fold
CC1(C)C(NC(=O)C(=NOCC(=O)N2CC3CCCC3C2C(=O)O)c2csc(N)n2)C(=O)N1OS(=O)(=O)O (stereo not shown),Serratia marcescens,agar dilution,"ATCC 21074, susceptible",,,MIC,2 µg/mL
Fc1ccc2c(c1)c1nc3ccc(Br)cc3c-1cn2Cc1cn(-c2ccccc2I)nn1,Giardia duodenalis trophozoites,"UHPLC-Q-TOF-MS metabolomics, item: all-trans-nonaprenyl diphosphate",,"IC50, 0.167 h",relative to: 0.25% DMSO,fold change,2.46

# Repeated from above:
SMILES,target or system,assay,system,setting,how to read,measurement,value
COc1ccccc1-c1n[nH]c2nc(NC3CCN(C(=O)Cc4ccc(F)cc4F)CC3)ncc12,Leishmania donovani,parasite growth,THP-1,"intracellular, amastigote",,EC50,75.2 nM
FC(F)(F)c1cccc(CNc2nc(NC3CCN(Cc4ccccc4)CC3)c3nc[nH]c3n2)c1,Cryptococcus neoformans,microbial growth,,17 h,,MIC50,15 µg/mL
Fc1ccc2c(c1)c1nc3ccc(Br)cc3c-1cn2Cc1cn(-c2ccccc2I)nn1,Giardia duodenalis trophozoites,"UHPLC-Q-TOF-MS metabolomics, item: all-trans-nonaprenyl diphosphate",,"IC50, 0.167 h",relative to: 0.25% DMSO,fold change,2.46
CNCc1ccc2c(c1)N(C(=O)OCc1c(F)c(F)c(F)c(F)c1F)[C@H](CNC(=N)N)[C@H]2NC(=O)C(=O)Nc1ccc(Cl)c(F)c1,HIV-1,"pseudovirus infection, Env pseudovirus neutralisation","TZM-bl, clade C T/F isolate 2A2",,,IC80,13100 nM
N=C(N)NCCC[C@@H]1NC(=O)[C@H](CCCNC(=N)N)NC(=O)[C@H](CCCNC(=N)N)NC(=O)[C@@H](CCCNC(=N)N)NC(=O)[C@H](Cc2ccc3ccccc3c2)NC(=O)[C@H](Cc2ccc3ccccc3c2)NC(=O)[C@H](Cc2ccc3ccccc3c2)NC1=O,Blastomyces dermatitidis,,BD-3,,,MIC,4 µg/mL
